Assay results of several laboratories.
Each line is one published result; not all experiments were run side by side. ± gives the spread as reported.

| SMILES | test | test system | setting | tissue uptake [%ID/g] |
| --- | --- | --- | --- | --- |
| O=C(NCC1OC2CCC=CCCC2O1)c1ccc(COCCOCCOCC[18F])cc1 (stereo not drawn) |  | female BALB/c nude mice, kidneys | intravenous, 60 min | 5 ± 1.7 |
| O=C([O-])c1cccc(CN(CCN(Cc2cn(Cc3ccccc3)nn2)Cc2cccc(C(=O)[O-])n2)Cc2cn(Cc3ccccc3)nn2)n1.[64Cu+2] |  | healthy athymic nude mice, small intestine | intravenous, 4 h | 5.18 |
| CCCC[C@H](NC(=O)CNC(=O)CNC(=O)CN1CCN(CC(=O)O)CCN(CC(=O)O)CC1)C(=O)N[C@H]1CC(=O)NCCCC[C@@H](C(N)=O)NC(=O)[C@H](Cc2c[nH]c3ccccc23)NC(=O)[C@H](CCCNC(=N)N)NC(=O)[C@@H](Cc2ccccc2)NC(=O)[C@H](Cc2c[nH]cn2)NC1=O [gallium-67 labelled] |  | female C57 mice, B16/F1 melanoma, pancreas | intravenous, 0.037 MBq, 4 h | 0.36 ± 0.04 |
| CCCC[C@@H]1NC(=O)[C@@H](NC(=O)[C@H](CCC(=O)O)NC(=O)CNC(=O)CN2CCN(CC(=O)O)CCN(CC(=O)O)CCN(CC(=O)O)CC2)CCCCNC(=O)C[C@@H](C(N)=O)NC(=O)[C@H](C(C)C)NC(=O)[C@@H]2CCCN2C(=O)[C@H](CCCNC(=N)N)NC(=O)CNC(=O)[C@H](Cc2c[nH]c3ccccc23)NC(=O)[C@H](CCCNC(=N)N)NC(=O)[C@@H](Cc2ccccc2)NC(=O)[C@H](Cc2c[nH]cn2)NC(=O)[C@H](CCC(=O)O)NC1=O [gallium-67 labelled] |  | C57 mice with B16/F1 melanoma, stomach | intravenous, 0.037 MBq, 4 h | 0.08 ± 0.07 |
| CCCC[C@H](NC(=O)CNC(=O)CNC(=O)CN1CCN(CC(=O)O)CCN(CC(=O)O)CCN(CC(=O)O)CC1)C(=O)N[C@H]1CC(=O)NCCCC[C@@H](C(N)=O)NC(=O)[C@H](Cc2c[nH]c3ccccc23)NC(=O)[C@H](CCCNC(=N)N)NC(=O)[C@@H](Cc2ccccc2)NC(=O)[C@H](Cc2c[nH]cn2)NC1=O [gallium-67 labelled] |  | female C57 mice, B16/F1 melanoma, stomach | intravenous, 0.037 MBq, 2 h | 1.68 ± 0.5 |
| N=C(N)NCCC[C@@H]1NC(=O)[C@H](CCCCNC(=O)CON=C[C@H](F)[C@@H](O)[C@H](O)[C@H](O)CO)NC(=O)[C@@H](Cc2ccc(O)cc2)NC(=O)[C@H](CC(=O)O)NC(=O)CNC1=O [fluorine-18 labelled] |  | nude mice U-87 MG tumour, stomach | intravenous, 2 h | 0.46 ± 0.52 |
| CN1C(=O)[C@@H](Cc2ccc(O)c(I)c2)NC(=O)CNC(=O)[C@H](Cc2ccc3ccccc3c2)NC(=O)[C@H](CCCNC(=N)N)NC(=O)[C@H]1CCCNC(=O)c1ccc(CNC(=O)CN2CCN(CC(=O)O)CCN(CC(=O)O)CCN(CC(=O)O)CC2)cc1 [lutetium-177 labelled] | item: 177Lu radioactivity | female CB-17 SCID mice, Daudi xenograft, stomach | intravenous, 0.16 nmol per mouse, 48 h | 0.12 ± 0.02 |
| CC(C)[C@H](NC(=O)[C@@H]1CCCN1C(=O)[C@H](CCCNC(=N)N)NC(=O)[C@H](CS)NC(=O)[C@H](Cc1c[nH]c2ccccc12)NC(=O)[C@H](CCCNC(=N)N)NC(=O)[C@@H](Cc1ccccc1)NC(=O)[C@H](Cc1c[nH]cn1)NC(=O)[C@H](CCC(=O)O)NC(=O)[C@H](CS)NC(=O)[C@H](CS)NC(=O)CNC(=O)[C@@H]1CC(=O)N[C@@H](CCCNC(=N)N)C(=O)NCC(=O)N[C@@H](CC(=O)O)C(=O)N[C@H](Cc2ccc(O)cc2)C(=O)N1)C(N)=O [technetium-99m labelled] |  | C57 mice B16/F1 melanoma female, liver | iv, 2 h, added: NDP-MSH 10 µg co-injected | 2.55 ± 1.38 |
| CCCC[C@H](NC(=O)CN1CCC(NC(=O)CN2CCN(CC(=O)O)CCN(CC(=O)O)CCN(CC(=O)O)CC2)CC1)C(=O)N[C@H]1CC(=O)NCCCC[C@@H](C(N)=O)NC(=O)[C@H](Cc2c[nH]c3ccccc23)NC(=O)[C@H](CCCNC(=N)N)NC(=O)[C@@H](Cc2ccccc2)NC(=O)[C@H](Cc2c[nH]cn2)NC1=O [gallium-68 labelled] |  | C57BL/6J mice male B16-F10 tumour, liver | 1 h post injection, unblocked | 0.6 ± 0.2 |
| NC12CNCCNCC(NCc3ccc(CNC(=O)CCCC(=O)NCc4ccc(-c5nncnn5)cc4)cc3)(CNCCNC1)CNCCNC2.[64Cu+2] |  | athymic nude mice SW1222 xenograft, bone | 1 h post injection, 24 h accumulation interval, added: huA33-TCO pretargeting | 0.67 ± 0.14 |
| N=C(N)NCCC[C@H](NC(=O)CON=C[C@H](F)[C@@H](O)[C@H](O)[C@H](O)CO)C(=O)NCC(=O)N[C@@H](CC(=O)O)C(=O)O [fluorine-18 labelled] |  | nude mice U-87 MG tumour, stomach | intravenous, 0.5 h | 0.61 ± 0.5 |
| O=C([O-])CN1CCN(CC(=O)[O-])CCN(CC(=O)[O-])CCN(CC(=O)[O-])CC1.[64Cu+2] |  | healthy athymic nude mice, large intestine | intravenous, 24 h | 0.35 |
